Published values of several laboratories.
Parts stem from different laboratories: compare values within a part only. Substitutions count along the parent as printed.

Study 1 — target: NFE2L1, bZIP domain (human); technique: DHFR protein complementation; medium: yeast; reference: wild-type JUN-FOS pair; reading: higher = stronger binding
Notes: single substitutions, most at no-binding floor
Starting sequence: JUN, bZIP domain (human); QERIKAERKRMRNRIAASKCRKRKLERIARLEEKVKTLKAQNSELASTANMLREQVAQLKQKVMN; partner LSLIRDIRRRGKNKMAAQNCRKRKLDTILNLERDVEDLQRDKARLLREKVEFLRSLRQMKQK
Variant	binding fitness
V56S	-1.58 natural log
E54I	-1.38 natural log
A40G	-1.52 natural log
V56N	-1.62 natural log
L45H	-1.5 natural log
K39W	-1.54 natural log
A46R	-1.41 natural log
A46Q	-1.53 natural log
E44Q	-1.49 natural log
K39T	-1.13 natural log
T48P	-1.48 natural log
K36L	-1.46 natural log
L38F	-1.46 natural log
R30C	-1.51 natural log
T37R	-1.35 natural log
L38R	-1.51 natural log
M51K	-1.54 natural log
R30Q	-1.53 natural log
V35Q	-1.41 natural log
V56A	-1.51 natural log
L45W	-1.5 natural log

Study 2 — technique: RNA Bind-n-Seq; molecule type: RNA; medium: in vitro; concentration: 365 nM; reference: no-protein control; reading: higher = stronger binding
Target: RNA binding protein fox-1 homolog 2, RRM domain, GST-SBP tag (RBFOX2, Homo sapiens, UniProt O43251-10, residues 100-194)
Notes: natural RNA segment, single round, ends assumed
Construct (chain): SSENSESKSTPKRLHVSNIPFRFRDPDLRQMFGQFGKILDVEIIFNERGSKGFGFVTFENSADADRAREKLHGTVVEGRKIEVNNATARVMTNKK
Strand	RBNS enrichment (R)
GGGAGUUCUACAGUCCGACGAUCGUGGGGGAGGGAGGGAAAGAGAAGAGCUCUGCACUUCCCUUUGUUGUAGUCUCACAGUAUAACAGAUAUUCUAAUUCUUCUUAAUAUUCCCCCAUAAUGCCAGAAAUUGGUGGAAUUCUCGGGUGCCAA	0.748
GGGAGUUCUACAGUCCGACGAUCAUUCAAGAGCUAGGAGGCCAGAGAGAAGACCUUCAGAAAACGGUAAGUUAAAGAAGACAAGUGUCAUCAGACACUUGGGACCCGGGCUCUCUUUAAAGUCUAGUCCCGGCUGGAAUUCUCGGGUGCCAA	0.327
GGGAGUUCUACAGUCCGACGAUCAUUUUGGGAUCUAUACCAAUUAAACAUUUUCAUAGUUCUGCCUAUUGUCCUUCCCUGAGGCUCCAUUGCUGCUUGGUGGCCAUUCUCUGCCUUUUUACAGUCACCUGAACUGGAAUUCUCGGGUGCCAA	0.864
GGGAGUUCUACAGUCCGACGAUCUGUAGCAGCUCGGGCCUCAUCUCAGCGCUCGGAUCCCUCCUGCUGCCAGAAUCCACUGGCCUCUGUCUCAUUCUUGGGUUUUCCUGCUGUCUUCGUUUACGUCUCUGUCCUGGAAUUCUCGGGUGCCAA	0.315
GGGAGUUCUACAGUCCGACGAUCUGCCUUGCAGAUAUUUCGGUACCGCUGAGUUUUCUUUCUUUUCCCAAGUGGGAAGAAGGCACACCUAGCUUGGACCCACCCACAAGCUGCACUGUGUGACCUCUCUGUUGUGGAAUUCUCGGGUGCCAA	0.233
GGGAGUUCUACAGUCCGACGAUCUUCUACUCUGUUCCUGGCCCUGCCGGCAGCCACUGACAAGAGGCCAGUGUGUCACCAGCCCUCAGCAGAAACCGAAAGAGAAAGAACGGAAACACGGAGUUUGGGCUCUGUGGAAUUCUCGGGUGCCAA	0.206
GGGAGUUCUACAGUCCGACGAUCCAGCCCUGAGCGUGCUGAGUUCUGUGUUUCUCUGAAUAGAGGUGUGGAACCUGAGGGGCCAGCAGGCCUCUCUGAAGGCCUCCAUGGAGCAAACGGAGCCACCUCGGGAAUGGAAUUCUCGGGUGCCAA	0.3
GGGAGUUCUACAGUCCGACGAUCUGGUUAAGUUGGCUUCUGUUUCUAGUUGAGGAGUUUCCUAAAAGUUCAUAACAGUGCCAUUGUCUUUAUAUGAACAUAGACUAGAGAAACCGUCCUCUUUUUCCAUCAUAUGGAAUUCUCGGGUGCCAA	0.479

Study 3 — technique: EMSA with sequencing; molecule type: double-stranded DNA, one strand shown; medium: in vitro; concentration: 10 and 20 nM; reference: negative control set to 0; reading: higher = stronger binding
Target: Hepatocyte nuclear factor 3-alpha (Foxa1, Mus musculus, UniProt P35582, residues 1-468, full length assumed)
Notes: whole designed probe, mean of two concentrations, ends assumed
Target sequence (chain): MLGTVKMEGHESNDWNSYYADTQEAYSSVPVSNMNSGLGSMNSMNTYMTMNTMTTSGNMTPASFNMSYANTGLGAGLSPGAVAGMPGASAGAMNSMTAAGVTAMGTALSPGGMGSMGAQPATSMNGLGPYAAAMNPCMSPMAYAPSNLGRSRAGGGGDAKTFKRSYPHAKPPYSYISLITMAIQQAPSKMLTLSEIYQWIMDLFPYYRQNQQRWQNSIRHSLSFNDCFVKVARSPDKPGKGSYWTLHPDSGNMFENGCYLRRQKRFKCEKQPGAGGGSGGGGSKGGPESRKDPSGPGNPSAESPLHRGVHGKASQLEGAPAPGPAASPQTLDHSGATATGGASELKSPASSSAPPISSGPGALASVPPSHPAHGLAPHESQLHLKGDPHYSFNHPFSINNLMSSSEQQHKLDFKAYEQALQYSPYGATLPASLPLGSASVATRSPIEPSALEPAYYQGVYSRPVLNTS
Strand	normalised bound fraction
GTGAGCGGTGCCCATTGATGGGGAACATCTTCCCCCTCTTCCTTGCCCCACCAGCTCACCTACGGGGGTTATTTGCAGATAGGAAAATAAATAAAGCCGGCATTCGTTAACCCTCTTCACGCGCATACTGCTGTTTGCTCTGGATCTAACATGGTCCTTTGGCGACGCCAGGCTCCGGGAGAGCAAAGCACCGTGTCAGGGCCATGATCCGGGCTCGCCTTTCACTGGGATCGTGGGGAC	0.344 ratio
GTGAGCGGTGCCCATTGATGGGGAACCCTGCACTCCTGCCGGTGGCCTGACCCCTTCTGCCCTGTGCCAATTGTCTGCACCCTCCATCCGGGGTTTGCCAGTCAGCCGGCCCAGAGCTATGTAAACAACAAGTCTAGATGTGTCCCTATTTGGGCAACTCTGCAAGGGAAAAATAAGAAGTTGTTAGAATGCTAAGAATGCAGAGCATCCGGAGATTCCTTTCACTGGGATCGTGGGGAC	0.458 ratio
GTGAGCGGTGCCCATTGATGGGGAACATCTTCCCCCTCTTCCTTGCCCCACCAGCTCACCTACGGGGGTTATTTGCAGATAGGAAAATAAATAAAGCCGGCATTCGTTAACCCTCTTCACGCGCATACTGCTGTTTGCTCTGCATGAATCATGGTCCTTACGCGAGGCGTGGCTCCGGGAGAGCAAAGCACCGTGTCAGGCGCATGATCCGGGCTCGCCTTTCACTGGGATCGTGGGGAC	0.351 ratio
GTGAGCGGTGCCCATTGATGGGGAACATCTTCCCCCTCTTCCTTGCCCCACCAGCTCACCTTCCCGGGTTATTTGCAGATAGGAAAATAAATAAAGCCGGCATTCGTTAACCCTCTTCTGGCGCAAACTGCTGTTTGCTCTGGTCCTTTGGCGACGCCAGGCTCCGGGAGAGCAGATGAATCATGAAGCACCGTGTCAGGGCCATGATCCGGGGTGGCCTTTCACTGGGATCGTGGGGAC	0.38 ratio
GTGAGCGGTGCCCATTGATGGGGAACACTATTTTATTCAGGTTGATTTGTTTAATATTTGCTAAAGGCCAGTTCTTTAAGCTATGACACATAATAAATCCCAAATGGCAGTACCTCATTGTTTACTTAGCTTTTGTACTTATATTTCTCAGAGGAAGAACCACTACTGTAAATTGTAAATAGCCAATACATAATTGTATTGTATGCAAATCTGTGACTGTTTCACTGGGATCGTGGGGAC	0.546 ratio

Study 4 — technique: protein binding microarray; molecule type: double-stranded DNA, one strand shown; medium: in vitro; concentration: not given; reference: not given; reading: higher = stronger binding
Target: Histone acetyltransferase KAT6A, winged helix 2, GST fusion (KAT6A, Homo sapiens, UniProt Q92794, residues 85-181)
Notes: 8-mer, flanks averaged, mean of 2 arrays, mostly near background
Construct (chain): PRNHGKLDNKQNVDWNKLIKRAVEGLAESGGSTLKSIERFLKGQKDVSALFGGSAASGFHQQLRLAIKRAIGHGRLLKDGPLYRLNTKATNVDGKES
Strand	E-score
CGTTTTAA	0.106
ATCAGCCG	0.14
ATAAGTTC	0.0484
ACGTTTAT	-0.109
ACTGTTGC	-0.0423
CGAGGAAA	0.0538
AAAAGCGA	0.0815
CTGGAAAG	-0.0136
AGCTTCAC	-0.0646
ACTCGTGC	-0.149
CGTTAATA	-0.0726
CTGGCTAC	-0.037
GCCATGAC	-0.0843
AAGGCCTT	-0.31
GGTGCACA	-0.14
CTGTTAAG	-0.0281
TGGGAACA	-0.0315
GATCACCC	0.0458
GTGCTAAA	0.0908

Study 5 — technique: universal PBM; molecule type: double-stranded DNA, one strand shown; medium: in vitro; concentration: 600 nM; reading: higher = stronger binding
Target: Sal-like protein 4, full length isoform A (SALL4, Homo sapiens, UniProt Q9UJQ4, residues 1-1053)
UniProt Q9UJQ4, sequence (whole entry, looked up): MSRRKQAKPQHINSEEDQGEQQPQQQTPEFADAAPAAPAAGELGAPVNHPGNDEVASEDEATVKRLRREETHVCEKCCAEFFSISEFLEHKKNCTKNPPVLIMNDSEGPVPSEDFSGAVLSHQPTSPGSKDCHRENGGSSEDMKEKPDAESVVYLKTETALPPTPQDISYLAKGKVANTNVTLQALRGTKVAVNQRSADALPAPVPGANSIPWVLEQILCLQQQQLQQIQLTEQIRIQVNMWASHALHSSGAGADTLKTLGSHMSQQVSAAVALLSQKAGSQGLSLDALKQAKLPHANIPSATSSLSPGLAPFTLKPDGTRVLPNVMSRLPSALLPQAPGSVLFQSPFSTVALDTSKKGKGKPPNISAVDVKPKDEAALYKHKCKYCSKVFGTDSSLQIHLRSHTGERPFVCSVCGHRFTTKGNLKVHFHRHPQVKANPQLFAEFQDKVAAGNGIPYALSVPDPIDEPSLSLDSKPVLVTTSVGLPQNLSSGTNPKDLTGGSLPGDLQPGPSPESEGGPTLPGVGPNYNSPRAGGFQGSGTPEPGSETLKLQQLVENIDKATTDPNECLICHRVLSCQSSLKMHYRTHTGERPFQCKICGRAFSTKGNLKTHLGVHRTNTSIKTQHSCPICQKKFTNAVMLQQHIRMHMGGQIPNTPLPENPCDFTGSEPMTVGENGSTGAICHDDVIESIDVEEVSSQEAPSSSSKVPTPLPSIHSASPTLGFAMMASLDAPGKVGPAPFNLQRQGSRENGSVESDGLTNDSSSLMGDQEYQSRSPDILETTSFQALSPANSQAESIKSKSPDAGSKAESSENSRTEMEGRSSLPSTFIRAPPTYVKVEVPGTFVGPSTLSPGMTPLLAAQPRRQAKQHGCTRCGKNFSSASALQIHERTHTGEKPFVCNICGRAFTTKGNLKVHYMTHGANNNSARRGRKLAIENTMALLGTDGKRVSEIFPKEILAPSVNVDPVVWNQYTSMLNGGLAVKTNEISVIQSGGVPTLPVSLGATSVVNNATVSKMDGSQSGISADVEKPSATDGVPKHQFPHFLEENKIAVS
Notes: 8-mer, flanks averaged, mean of replicates
Strand	E-score
CCTGCTAG	-0.162
ACTGCAGG	-0.219
AGTGAACT	-0.051
AAGGGGAG	-0.256
ACGGGCTG	-0.305
AGCCCCTC	-0.19
GGATCTAA	-0.0167
TAGGACCA	-0.0607
CAAGTCGC	-0.283
GGGTTGGA	-0.166
GTAGGGCA	-0.189
AGCGTGGC	-0.214
CCAACTCA	-0.0461
ACTTGGAA	0.0398
ACGTCGCG	-0.164
CCCCGGGC	-0.43
ACCTAACA	0.0769
AACGTTCG	-0.0452
CAAGACAC	0.0497
ATCTGACG	-0.138
AGCCTTGC	-0.305
AACCCTCC	-0.212
ACCCTTTA	0.0779
AACAAGTA	0.24
CCGGTAAC	-0.174
